Experimental data of several laboratories.
Compare with care: the assays were run in different laboratories. “And” joins repeats or separate records; there may be more than shown. Numbers after ± are the reported error.

The cytotoxicity of `Cc1ccc(CNC(=O)Cn2cc(CSc3nc4ccccc4[nH]3)nn2)cc1` is reported as 71.7% (Caco-2; MTT; 31.3 ppm).
For `Cc1cc(O)c2c(c1)C(=O)c1cc(O)cc(O)c1C2=O`, the viability was 32.1 ± 6.23% (HK-2 co-cultured with HepaRG; MTT; 133.33 µM, 24 h; baseline: untreated control).
For `COc1cc(/C=C/C(=O)N2CCC=CC2=O)cc(OC)c1OC`, the mRNA level was 31.8 ± 2.3% (MDA-MB-468; quantitative RT-PCR, item: Bcl-xL; 30 µM, 8 h; baseline: untreated).
For `COc1cc(/C=C/C(=O)O)ccc1O`, “transepithelial electrical resistance” read 85 ± 4.8% (Caco-2/THP-1 co-culture; TEER; concentration not given, added: LPS 500 ng/mL; baseline: control).
For `CN1CCN2c3c(cccc31)[C@@H]1CN(CCCC(=O)c3ccc(F)cc3)CC[C@@H]12`, the inhibition was -12% (THP-1; pyroptotic LDH release; 2 µM, 40 min, added: LPS then nigericin).
Under “Bliss synergy score”, `COc1cc2ncnc(Nc3ccc(Oc4ccccc4)cc3C)c2cc1OC.O=C(O)C(F)(F)F` is recorded as 223% (Calu-6 (KRAS Q61K); resazurin; concentration not given, 72 h, added: trametinib; direction not given).
`O=C(O)Cc1ccc(O)cc1` has an IL-1β level of 6.4 ± 1 fold change (coculture, Caco-2, THP-1; ELISA; 50 ng/mL, 8 h, added: LPS, IFNγ, ATP; baseline: untreated control).
`CCn1cc(-c2cc(Cn3ccnc3)cc3c2CCN([C@H](c2cc(OC)ccn2)C2CC2)C3=O)c(C(F)(F)F)n1` gave an EC50 of greater than 30 µM (HCC1438; cell growth; 120 h).
`CCCCCC(O)c1ccc(N2C(=O)CC[C@@H]2COCc2ccc(C(=O)OC(C)C)s2)cc1` (stereo partly drawn) gave an EC50 of 4.29 µM (HEK293T ATF4-FLuc reporter; ATF4 reporter gene, activator, luciferase reporter).
`O=C1c2cccc(O)c2C(=O)c2c(O)cc(CO)cc21` has a viability of 146 ± 22.2% (HK-2 co-cultured with HepaRG; MTT; 133.33 µM, 24 h; baseline: untreated control).
For `Cl.Cl.NCCNS(=O)(=O)c1ccc(Cl)c2ccncc12`, “relative cell number” read 120% (SK-OV-3; ATP; 0.01 µM, 4 days, 3D U-bottom low-attachment; baseline: untreated).
`CCn1cc(-c2cc(Cn3ccoc3=N)cc3c2CCN([C@@H](C)c2cc(OC)ccn2)C3=O)c(C(F)(F)F)n1` has an EC50 of 0.65 µM (OCUM1; cell growth, inhibitor; 120 h).
`CCCC(=O)[O-].[Na+]` gave an IL-1β level of 6 ± 11.8 fold change (coculture, Caco-2, THP-1; ELISA; 100 ng/mL, 8 h, added: LPS, IFNγ, ATP; baseline: untreated control).
`CC(C)C[C@H](NC(=O)C[C@H](O)[C@H](CC(C)C)NC(=O)[C@H](Cc1c[nH]cn1)NC(=O)CNC(=O)[C@@H](NC(=O)[C@H](C)NC(=O)[C@H](Cc1c[nH]c2ccccc12)NC(=O)[C@H](CCC(N)=O)NC(=O)[C@@H](Cc1ccccc1)NC(=O)COCCOCCNC(=O)CCC(C(=O)O)N1CCN(CC(=O)O)CCN(CC(=O)O)CCN(CC(=O)O)CC1)C(C)C)C(N)=O` (stereo partly drawn) [lutetium-177 labelled] gave a tissue uptake of 4.9 ± 0.6 %ID/g (BALB/c nu/nu mice, kidneys; intravenous, 500 pmol, 1 h, added: PA 300 µg).
With `CC(C)NCC(O)c1ccc(O)c(O)c1` (stereo not drawn) the sarcomere length was 1.8 µm (mouse ventricular cardiomyocytes; dose not given, 0.043 s).
`COc1cc(O)c(C(C)=O)c(OC)c1` gave an inhibition of -2.96% (THP-1; pyroptotic LDH release; 2 µM, 40 min, added: LPS then nigericin).
`O=C(COP(=O)(O)O)[C@@H](O)[C@H](O)[C@H](O)COP(=O)(O)O` gave a glucose consumption of 1.1 mM and 1.45 mM and 1.32 mM (HepG2 PGAM1 knockout; concentration not given).
Under “transepithelial electrical resistance”, `O=c1c(O)c(-c2ccc(O)cc2)oc2cc(O)cc(O)c12` is recorded as 76.2 ± 2.4% (Caco-2/THP-1 co-culture; TEER; 0.05 µg/mL, added: LPS 50 ng/mL; baseline: control).
With `CN(C)C/C=C/C(=O)Nc1cc2c(Nc3ccc(F)c(Cl)c3)ncnc2cc1O[C@H]1CCOC1` the viability was 0.5 ± 0.1% (SW-620/AD300 spheroids, P-gp overexpressing; CellTiter-Glo 3D; 6 µM, 12 days; baseline: untreated).
For `OB1OCc2cc(F)ccc21`, the inhibition was -0.648% (THP-1; pyroptotic LDH release; 2 µM, 40 min, added: LPS then nigericin).
For `CCCCN1CCN(c2ccc3[nH]c(-c4ccc5[nH]c(-c6ccc(OCC)cc6)nc5c4)nc3c2)CC1`, the growth percent was 36.9% (RXF 393; SRB; 10 µM, 48 h).
The cell growth of `Cc1cc(-c2ccccc2)n(-c2nc(-c3ccc(Cl)cc3)c3c(NC(=O)c4ccccc4)nnc-3[nH]2)n1` is reported as 102% (OVCAR-8; SRB; 10 µM, NCI60 single-dose screen; baseline: untreated).
`C[C@H]1[C@H](C)CC[C@]2(C)CC[C@]3(C)C(=CC(=O)[C@@H]4[C@@]5(C)CC[C@@H](O)[C@](C)(C(=O)NCc6cn(-c7cccc(Br)c7)nn6)[C@@H]5CC[C@]43C)[C@H]12`: “CD8- T cells” 40% (human PBMCs, ConA-activated; flow cytometry; 5 µM, 24 h; baseline: T cells).
`O=c1[nH]nc(OCCCc2ccc(Cl)cc2)c(NCc2cccnc2)c1Br` — result for “normalized enrichment score”: 0.963 (HEK-293T; RNA-seq GSEA, item: HALLMARK_FATTY_ACID_METABOLISM; concentration not given; direction not given).
`O=C(/C=C/C=C/C=C/C1CCCCC1)NC1=C[C@@](O)(/C=C/C=C/C=C/C(=O)NC2=C(O)CCC2=O)[C@@H]2O[C@@H]2C1=O` has a GI50 of 9.95 µM (snu719; cell growth, inhibitor, CellTiter-Glo luminescence; 78 h; baseline: day 0 cell count).
With `Cc1nn(-c2nc3ccc(Cl)c(Cl)c3[nH]2)c(O)c1C1OC(=O)c2ccccc21` (stereo not drawn) the phospho-TBK1/TBK1 ratio was 0.791 and 0.878 (RAW-ISG; TBK1 phosphorylation, western blot; 10 µM, added: poly(I:C); baseline: DMSO).
The EC50 of `N=C(NCCCCCCNC(=N)NC(=N)Nc1ccc(Cl)cc1)NC(=N)Nc1ccc(Cl)cc1` is reported as 5.3 µM (HEK293T ATF4-FLuc reporter; ATF4 reporter gene, activator, luciferase reporter).
`COc1cc(OC)cc(OC)c1` gave an inhibition of -0.958% (THP-1; pyroptotic LDH release; 2 µM, 40 min, added: LPS then nigericin).
The EC50 of `CC[C@H]1OC(=O)[C@H](C)C(=O)[C@H](C)[C@@H](O[C@@H]2O[C@H](C)C[C@H](N(C)C)[C@H]2O)[C@](C)(OC)C[C@@H](C)C(=O)[C@H](C)[C@H]2N(NCCCc3ccnc4ccccc34)C(=O)O[C@]12C` is reported as greater than 9.96 µM (HEK293T ATF4-FLuc reporter; ATF4 reporter gene, activator, luciferase reporter).
For `Nc1cccc2c1C(=O)N(C1CCC(=O)NC1=O)C2=O` (stereo not drawn), the viability was 16% and 14% (MM1.S; XTT; 2.5 µM).
With `COc1cnc2cccc(N3CCc4c(cc(Cn5ccnc5C)cc4-c4cn(C)nc4C(F)(F)F)C3=O)c2c1` the EC50 was 0.0298 µM (OCI-Ly10; cell growth, inhibitor; 120 h).
With `COc1ccc(F)cc1C(=O)NCc1ccc(-c2nn([C@@H](C)C(F)(F)F)c(N)c2C(N)=O)cc1` the IC50 was greater than 0.1 µM (Rec1; item: EOTAXIN; 24 h).
`Cn1c(Nc2nc3ccc(C(F)(F)F)cc3s2)nc2cc(C(=O)NCCOCCO)ccc21` has a fold change of 1.94 (SH-SY5Y; RNA-seq, item: TRAF1 mRNA; 5 µM, 5 h; baseline: untreated cells).
`Cc1ccc(C(=O)c2cc(O)c(O)c([N+](=O)[O-])c2)cc1` gave an inhibition of 7.43% (THP-1; pyroptotic LDH release; 2 µM, 40 min, added: LPS then nigericin).
`O=C(O)CCc1cccc(O)c1` has an IL-1β level of 10.7 ± 1.9 fold change (coculture, Caco-2, THP-1; ELISA; 250 ng/mL, 8 h, added: LPS, IFNγ, ATP; baseline: untreated control).
`CCc1c(-c2ccccc2)c(-c2ccccc2)nn1-c1ccccc1-c1cccc(OCC(=O)O)c1` has a mRNA level of 0.611 and 0.599 and 0.646 (mouse osteoclasts; RT-qPCR, item: Fosl2; concentration not given, unit not given; baseline: bone marrow macrophages).
`Cc1cccc(/C=N/Nc2cc(N3CCOCC3)nc(OCCc3ccccn3)n2)c1` gave an EC50 of 2.73 µM (HEK293T ATF4-FLuc reporter; ATF4 reporter gene, activator, luciferase reporter).
`CC(=O)N1CCN(c2ccc(OCC3COC(Cn4ccnc4)(c4ccc(Cl)cc4Cl)O3)cc2)CC1` (stereo not drawn) gave an inhibition of -21.2% (THP-1; pyroptotic LDH release; 2 µM, 40 min, added: LPS then nigericin).
For `Cn1cc(-c2ccc(-c3cncc(Cl)c3N3CCC4(CCNC4=O)CC3)cc2)cn1`, “log2 fold change” read -1.89 (COLO 205; gene expression, microarray, item: TTLL5 mRNA; concentration not given, 6 h; baseline: untreated cells).
`O=C(NC1CC1)c1cc2c(s1)-c1ccccc1N(C(=O)c1ccc(NC(=O)c3cccnc3N3CCC4(CC3)COC4)cc1)CC2` gave an EC50 of 7.05 µM (HEK293T ATF4-FLuc reporter; ATF4 reporter gene, activator, luciferase reporter).
The inhibition of `COc1ccc(C(=O)c2ccccc2)c(O)c1` is reported as -5.05% (THP-1; pyroptotic LDH release; 2 µM, 40 min, added: LPS then nigericin).
`CC(=O)[C@@]1(C)CC[C@H]2[C@@H]3C=C(C)C4=CC(=O)CC[C@]4(C)[C@H]3CC[C@@]21C` gave an EC50 of greater than 9.96 µM (HEK293T ATF4-FLuc reporter; ATF4 reporter gene, activator, luciferase reporter).
With `O=C(OCc1ccccc1)c1ccccc1` the inhibition was 33.4% (THP-1; pyroptotic LDH release; 2 µM, 40 min, added: LPS then nigericin).
With `CCc1cnc(N2CCC(c3nc(COc4ccc(-n5cnnn5)cc4)cs3)CC2)nc1` the EC50 was 3.64 µM (HEK293T ATF4-FLuc reporter; ATF4 reporter gene, activator, luciferase reporter).
For `CCOC(=O)c1nn(-c2ccccc2)c(C#N)c1NC(=O)c1nn(CC)cc1F`, the inhibition was less than 0.5% (human monocytes; phagocytosis of anti-D RBCs; 5 µM, lab-synthesized sample).
